Measured values gathered from unrelated publications.
Lines come from different studies, so protocols differ.
PTGS2: Prostaglandin G/H synthase 2 (PTGS2, Homo sapiens, UniProt P35354)
UniProt P35354, sequence (whole entry, looked up): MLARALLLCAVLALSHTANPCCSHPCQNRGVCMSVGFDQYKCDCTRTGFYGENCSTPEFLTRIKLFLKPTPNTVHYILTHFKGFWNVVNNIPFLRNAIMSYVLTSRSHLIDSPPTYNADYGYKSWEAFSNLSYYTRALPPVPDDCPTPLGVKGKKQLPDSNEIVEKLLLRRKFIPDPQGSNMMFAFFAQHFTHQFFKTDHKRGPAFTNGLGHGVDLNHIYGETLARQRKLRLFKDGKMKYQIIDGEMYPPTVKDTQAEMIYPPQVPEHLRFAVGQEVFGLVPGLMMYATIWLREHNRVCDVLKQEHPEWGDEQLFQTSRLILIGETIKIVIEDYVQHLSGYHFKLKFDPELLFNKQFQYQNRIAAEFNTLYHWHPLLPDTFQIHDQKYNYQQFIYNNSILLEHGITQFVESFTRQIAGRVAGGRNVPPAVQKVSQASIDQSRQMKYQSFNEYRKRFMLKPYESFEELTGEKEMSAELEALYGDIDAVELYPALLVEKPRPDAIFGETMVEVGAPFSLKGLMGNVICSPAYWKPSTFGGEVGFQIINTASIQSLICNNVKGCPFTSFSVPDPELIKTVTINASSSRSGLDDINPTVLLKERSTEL
HDAC3: Histone deacetylase 3 (HDAC3, Homo sapiens, UniProt O15379)
UniProt O15379, sequence (whole entry, looked up): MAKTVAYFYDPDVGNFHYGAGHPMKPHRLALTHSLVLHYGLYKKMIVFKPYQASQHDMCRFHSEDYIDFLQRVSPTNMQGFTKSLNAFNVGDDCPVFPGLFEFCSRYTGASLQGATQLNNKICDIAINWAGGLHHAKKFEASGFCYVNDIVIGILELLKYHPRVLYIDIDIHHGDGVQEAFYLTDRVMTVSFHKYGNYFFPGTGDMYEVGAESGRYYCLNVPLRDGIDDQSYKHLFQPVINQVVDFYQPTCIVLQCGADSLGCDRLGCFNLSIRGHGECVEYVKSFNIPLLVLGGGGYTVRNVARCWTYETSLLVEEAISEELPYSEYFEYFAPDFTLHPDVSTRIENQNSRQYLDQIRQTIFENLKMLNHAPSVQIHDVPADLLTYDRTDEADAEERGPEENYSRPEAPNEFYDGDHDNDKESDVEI
Calpain-2 catalytic subunit: Calpain-2 catalytic subunit (Homo sapiens, UniProt P17655)
UniProt P17655, sequence (whole entry, looked up): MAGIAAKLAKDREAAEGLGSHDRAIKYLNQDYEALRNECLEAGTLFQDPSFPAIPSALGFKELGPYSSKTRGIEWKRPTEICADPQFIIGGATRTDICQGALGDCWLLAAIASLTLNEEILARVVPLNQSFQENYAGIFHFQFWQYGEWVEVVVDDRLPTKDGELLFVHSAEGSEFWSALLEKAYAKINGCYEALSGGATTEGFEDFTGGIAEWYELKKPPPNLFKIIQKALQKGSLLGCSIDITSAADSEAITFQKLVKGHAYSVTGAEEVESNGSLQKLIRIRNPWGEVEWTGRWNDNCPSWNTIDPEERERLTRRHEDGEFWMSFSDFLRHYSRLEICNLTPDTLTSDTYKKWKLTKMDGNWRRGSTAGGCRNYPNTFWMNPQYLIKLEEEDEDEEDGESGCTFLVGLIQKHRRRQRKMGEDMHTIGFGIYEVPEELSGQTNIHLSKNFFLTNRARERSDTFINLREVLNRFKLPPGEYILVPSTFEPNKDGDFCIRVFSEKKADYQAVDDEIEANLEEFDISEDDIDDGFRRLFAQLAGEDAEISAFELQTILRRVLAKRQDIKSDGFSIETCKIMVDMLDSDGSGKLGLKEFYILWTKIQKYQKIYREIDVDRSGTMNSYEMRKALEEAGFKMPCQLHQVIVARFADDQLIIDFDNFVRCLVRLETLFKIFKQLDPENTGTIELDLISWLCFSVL
P4HB: Protein disulfide-isomerase (P4HB, Homo sapiens, UniProt P07237)
UniProt P07237, sequence (whole entry, looked up): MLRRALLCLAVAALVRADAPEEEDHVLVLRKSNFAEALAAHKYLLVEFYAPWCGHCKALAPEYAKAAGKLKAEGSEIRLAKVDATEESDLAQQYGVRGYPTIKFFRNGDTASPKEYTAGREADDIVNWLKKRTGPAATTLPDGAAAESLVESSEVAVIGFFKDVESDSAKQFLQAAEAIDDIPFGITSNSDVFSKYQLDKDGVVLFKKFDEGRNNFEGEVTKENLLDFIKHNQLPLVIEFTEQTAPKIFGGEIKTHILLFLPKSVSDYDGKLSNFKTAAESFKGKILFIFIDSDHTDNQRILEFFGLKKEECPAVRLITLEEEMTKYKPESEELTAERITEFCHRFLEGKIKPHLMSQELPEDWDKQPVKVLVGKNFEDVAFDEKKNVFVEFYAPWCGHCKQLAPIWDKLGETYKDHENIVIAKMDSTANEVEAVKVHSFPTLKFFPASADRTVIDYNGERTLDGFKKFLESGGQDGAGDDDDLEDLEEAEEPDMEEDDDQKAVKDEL
UniProt P98170, sequence (whole entry, looked up): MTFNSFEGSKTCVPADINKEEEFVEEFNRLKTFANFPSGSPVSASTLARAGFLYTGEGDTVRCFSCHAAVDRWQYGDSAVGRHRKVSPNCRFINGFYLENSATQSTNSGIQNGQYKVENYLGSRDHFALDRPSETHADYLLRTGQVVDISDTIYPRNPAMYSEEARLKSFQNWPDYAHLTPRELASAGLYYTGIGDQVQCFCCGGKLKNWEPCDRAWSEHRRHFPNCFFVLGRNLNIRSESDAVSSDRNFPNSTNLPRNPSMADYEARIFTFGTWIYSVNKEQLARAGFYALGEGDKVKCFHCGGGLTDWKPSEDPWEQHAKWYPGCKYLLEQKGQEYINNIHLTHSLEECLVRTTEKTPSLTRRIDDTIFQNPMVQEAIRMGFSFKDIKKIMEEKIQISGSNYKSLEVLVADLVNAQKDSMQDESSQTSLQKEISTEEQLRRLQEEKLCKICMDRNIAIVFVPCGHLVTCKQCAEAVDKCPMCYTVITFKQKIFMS
UniProt O60733, sequence (whole entry, looked up): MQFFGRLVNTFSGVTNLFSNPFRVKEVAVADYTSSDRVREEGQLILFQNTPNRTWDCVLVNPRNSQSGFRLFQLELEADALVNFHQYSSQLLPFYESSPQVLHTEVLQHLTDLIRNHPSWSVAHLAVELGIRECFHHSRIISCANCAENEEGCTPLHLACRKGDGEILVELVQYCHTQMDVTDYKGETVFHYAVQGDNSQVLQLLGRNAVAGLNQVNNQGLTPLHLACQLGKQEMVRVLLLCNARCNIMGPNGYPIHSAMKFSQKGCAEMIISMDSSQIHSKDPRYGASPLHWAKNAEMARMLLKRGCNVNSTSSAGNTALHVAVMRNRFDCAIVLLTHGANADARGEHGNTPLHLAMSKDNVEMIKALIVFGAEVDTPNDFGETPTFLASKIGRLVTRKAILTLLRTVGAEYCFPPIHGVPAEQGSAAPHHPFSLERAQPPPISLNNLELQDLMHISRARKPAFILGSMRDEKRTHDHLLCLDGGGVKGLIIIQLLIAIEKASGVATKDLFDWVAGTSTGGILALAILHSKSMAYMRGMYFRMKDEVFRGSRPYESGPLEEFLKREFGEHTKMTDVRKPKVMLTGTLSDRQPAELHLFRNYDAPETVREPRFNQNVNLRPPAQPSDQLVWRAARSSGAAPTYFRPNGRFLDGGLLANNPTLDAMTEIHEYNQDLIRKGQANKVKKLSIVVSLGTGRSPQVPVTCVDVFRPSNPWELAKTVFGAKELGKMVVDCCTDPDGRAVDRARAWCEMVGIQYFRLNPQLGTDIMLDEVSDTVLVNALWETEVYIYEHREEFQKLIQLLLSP
UniProt Q9Y251, sequence (whole entry, looked up): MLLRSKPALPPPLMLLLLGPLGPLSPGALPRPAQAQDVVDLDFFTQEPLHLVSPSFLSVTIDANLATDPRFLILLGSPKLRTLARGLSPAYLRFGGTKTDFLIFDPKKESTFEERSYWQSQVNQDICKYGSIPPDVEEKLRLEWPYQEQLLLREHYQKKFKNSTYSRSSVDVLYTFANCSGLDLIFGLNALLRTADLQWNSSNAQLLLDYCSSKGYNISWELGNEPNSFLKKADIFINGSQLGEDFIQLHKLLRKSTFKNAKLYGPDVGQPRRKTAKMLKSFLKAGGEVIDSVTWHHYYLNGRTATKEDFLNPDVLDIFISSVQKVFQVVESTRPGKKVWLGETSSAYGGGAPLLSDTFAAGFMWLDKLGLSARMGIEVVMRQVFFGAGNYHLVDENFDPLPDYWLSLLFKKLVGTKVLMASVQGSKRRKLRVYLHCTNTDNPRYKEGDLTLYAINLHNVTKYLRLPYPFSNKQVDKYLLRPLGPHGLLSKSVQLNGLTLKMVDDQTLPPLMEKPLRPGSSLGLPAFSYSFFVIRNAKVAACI
UniProt Q8TBC4, sequence (whole entry, looked up): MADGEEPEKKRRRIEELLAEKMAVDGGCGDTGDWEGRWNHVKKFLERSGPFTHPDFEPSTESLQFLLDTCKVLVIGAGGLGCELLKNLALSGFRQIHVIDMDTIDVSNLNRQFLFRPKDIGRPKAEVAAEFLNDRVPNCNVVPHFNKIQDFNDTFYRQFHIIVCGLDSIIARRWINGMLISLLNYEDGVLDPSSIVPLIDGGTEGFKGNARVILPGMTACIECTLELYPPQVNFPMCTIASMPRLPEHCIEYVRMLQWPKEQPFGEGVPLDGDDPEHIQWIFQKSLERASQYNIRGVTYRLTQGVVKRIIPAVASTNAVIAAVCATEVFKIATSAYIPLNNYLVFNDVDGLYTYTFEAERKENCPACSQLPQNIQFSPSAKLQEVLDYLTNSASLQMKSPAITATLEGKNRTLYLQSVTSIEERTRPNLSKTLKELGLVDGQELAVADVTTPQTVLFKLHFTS

| SMILES | target | observed | action | technique | added | relative to | selectivity ratio |
| --- | --- | --- | --- | --- | --- | --- | --- |
| NS(=O)(=O)c1ccc(-n2cc(CNc3ccc(F)cc3)c(-c3ccc(OCc4ccccc4)cc3)n2)cc1 | PTGS2 | enzyme activity | inhibitor | TMPD chromogenic |  | COX-1 IC50 over COX-2 IC50 | 22.2 |
| CCCC[C@H](NC(C)=O)C(=O)N[C@@H](CO)C(=O)N[C@H](C(=O)N1CCC[C@H]1C(=O)N[C@]1(C)CCCCCCC=CCCC[C@@](C)(C(=O)N[C@@H](Cc2ccccc2)C(=O)N[C@@H](CCCCN)C(=O)N[C@@H](CCCNC(=N)N)C(=O)N[C@@H](CC(C)C)C(=O)N[C@@H](CCC(N)=O)C(N)=O)NC(=O)[C@H](CCCNC(=N)N)NC(=O)[C@H](CCCC)NC(=O)[C@H](CC(C)C)NC(=O)[C@H](CCCNC(=N)N)NC(=O)[C@H](CCCNC(=N)N)NC(=O)[C@H](CCCNC(=N)N)NC1=O)[C@@H](C)O | NEDD8-activating enzyme E1 catalytic subunit, part with NAE1 (UBA3, Homo sapiens, UniProt Q8TBC4) | thioester transfer to UBE2M | inhibitor |  |  | IC50 of target over UBE1 | 6 fold |
| O=C(CCCCCCNCc1ccc(F)cc1)NO | HDAC3 | deacetylase activity | inhibitor | fluorescence | Boc-Lys(Ac)-AMC substrate | IC50 HDAC3 over IC50 HDAC1 | 1.1 |
| CN[C@@H](C)C(=O)N[C@H]1CCCCNC(=O)[C@H](Cc2ccccc2)NC(=O)[C@@H]2CCCN2C(=O)[C@@H](NC(=O)[C@H](C)NC)CCCCNC(=O)[C@H](Cc2ccccc2)NC(=O)[C@@H]2CCCN2C1=O | E3 ubiquitin-protein ligase XIAP, BIR3 domain (XIAP, Homo sapiens, UniProt P98170) | binding |  | fluorescence polarization |  | BIR3 over BIR2 affinity | ~1000 |
| Cc1cc(CN(CCCCCCC(=O)NO)Cc2ccc(F)c(C)c2)ccc1F | HDAC3 | deacetylase activity | inhibitor | fluorescence | Boc-Lys(Ac)-AMC substrate | IC50 HDAC3 over IC50 HDAC1 | 1.4 |
| Cc1ccc(NCc2cn(-c3ccc(S(N)(=O)=O)cc3)nc2-c2ccc(OCc3ccccc3)cc2)cc1 | PTGS2 | enzyme activity | inhibitor | TMPD chromogenic |  | COX-1 IC50 over COX-2 IC50 | 74.9 |
| O=C(O)[C@@H]1[C@@H](OCCNC(=O)C(F)(F)F)[C@H](O)[C@@H](O)[C@@H]2O[C@@H]21 | Heparanase (HPSE, Homo sapiens, UniProt Q9Y251) |  | inhibitor | competitive ABPP |  | IC50 E. coli β-glucuronidase over HPSE | 67 |
| O=C1CCc2ccc(NS(=O)(=O)c3cccc(Oc4ccccc4)c3)cc2N1 | PLA2G6 (Homo sapiens, UniProt O60733) |  | inhibitor | fluorescence |  | cPLA2 over target | > 100 fold |
| CCC(NC(=O)C(CC(C)C)NC(=O)CCc1ccccc1)C(=O)C(=O)NCc1cc(F)cc(OC)c1 (centres unmarked) | Calpain-2 catalytic subunit | enzyme activity | inhibitor |  | Suc-Leu-Tyr-AMC | Ki calpain-1 over calpain-2 | 4.5 |
| CC(C)CCN(c1nc(C#N)nc(NC2COC2)n1)C(C)c1ccc(F)cc1 (centres unmarked) | CPL (Toxoplasma gondii, UniProt Q6DMN0) | enzyme activity | inhibitor |  |  | human over Toxoplasma IC50 | 0.25 |
| O=C(CCCCCCNCc1ccc2c(c1)OCO2)NO | HDAC3 | deacetylase activity | inhibitor | fluorescence | Boc-Lys(Ac)-AMC substrate | IC50 HDAC3 over IC50 HDAC1 | 1.3 |
| CCCCCCc1ccc(S(=O)(=O)N2CC2C(N)=O)cc1 (centres unmarked) | P4HB | insulin reduction | inhibitor |  |  | IC50 PDIA1 over IC50 PDIA3 | 0.0004 to 0.0035 |
| Fc1ccc(NCc2cn(-c3ccccc3)nc2-c2ccc(OCc3ccccc3)cc2)cc1 | PTGS2 | enzyme activity | inhibitor | TMPD chromogenic |  | COX-1 IC50 over COX-2 IC50 | 33.8 |
| CCC(NC(=O)C(CC(C)C)NC(=O)CCc1ccccc1)C(=O)C(=O)NCc1cccc(OC)c1 (centres unmarked) | Calpain-2 catalytic subunit | enzyme activity | inhibitor |  | Suc-Leu-Tyr-AMC | Ki calpain-1 over calpain-2 | 2.8 |
| O=C(CCCCCCN(Cc1cccnc1)Cc1cccnc1)NO | HDAC3 | deacetylase activity | inhibitor | fluorescence | Boc-Lys(Ac)-AMC substrate | IC50 HDAC3 over IC50 HDAC1 | 1 |
| CN(C)CCNC(=O)c1cccc2c(NCCCCc3c(N)nc(N)nc3N)c3ccccc3nc12 | tRNA | binding |  | ITC |  | Kd RNA A over Kd tRNA | 670 |
| CCC(NC(=O)C(CC(C)C)NC(=O)CCc1ccncc1)C(=O)C(=O)NCc1cc(OC)cc(OC)c1 (centres unmarked) | Calpain-2 catalytic subunit | enzyme activity | inhibitor |  | Suc-Leu-Tyr-AMC | Ki calpain-1 over calpain-2 | 1 |
| O=C(CCCCCCNCc1ccc([N+](=O)[O-])cc1)NO | HDAC3 | deacetylase activity | inhibitor | fluorescence | Boc-Lys(Ac)-AMC substrate | IC50 HDAC3 over IC50 HDAC1 | 4.5 |
| Clc1ccccc1NCc1cn(-c2ccccc2)nc1-c1ccc(OCc2ccccc2)cc1 | PTGS2 | enzyme activity | inhibitor | TMPD chromogenic |  | COX-1 IC50 over COX-2 IC50 | 19.6 |
| O=C(CCCCCCN(Cc1ccc([N+](=O)[O-])cc1)Cc1ccc([N+](=O)[O-])cc1)NO | HDAC3 | deacetylase activity | inhibitor | fluorescence | Boc-Lys(Ac)-AMC substrate | IC50 HDAC3 over IC50 HDAC1 | 0.7 |
| Fc1ccccc1NCc1cn(-c2ccccc2)nc1-c1ccc(OCc2ccccc2)cc1 | PTGS2 | enzyme activity | inhibitor | TMPD chromogenic |  | COX-1 IC50 over COX-2 IC50 | 10.1 |
| CCCCCc1ccc(S(=O)(=O)N2CC2C(=O)N(C)C)cc1 (centres unmarked) | P4HB | insulin reduction | inhibitor |  |  | IC50 PDIA1 over IC50 PDIA3 | 0.0004 to 0.0035 |
| CCC(NC(=O)C(CC(C)C)NC(=O)Nc1ccncc1)C(=O)C(=O)NCc1cc(OC)cc(OC)c1 (centres unmarked) | Calpain-2 catalytic subunit | enzyme activity | inhibitor |  | Suc-Leu-Tyr-AMC | Ki calpain-1 over calpain-2 | 1.4 |
| Brc1ccc(NCc2cn(-c3ccccc3)nc2-c2ccc(OCc3ccccc3)cc2)cc1 | PTGS2 | enzyme activity | inhibitor | TMPD chromogenic |  | COX-1 IC50 over COX-2 IC50 | 13 |
| CCC(NC(=O)C(CC(C)C)NC(=O)NCc1ccccc1)C(=O)C(=O)NCc1cccc(OC)c1 (centres unmarked) | Calpain-2 catalytic subunit | enzyme activity | inhibitor |  | Suc-Leu-Tyr-AMC | Ki calpain-1 over calpain-2 | 1.7 |
| Cc1cc(CNCCCCCCC(=O)NO)ccc1F | HDAC3 | deacetylase activity | inhibitor | fluorescence | Boc-Lys(Ac)-AMC substrate | IC50 HDAC3 over IC50 HDAC1 | 1.4 |

A few entries again:
| SMILES | target | observed | action | technique | added | relative to | selectivity ratio |
| --- | --- | --- | --- | --- | --- | --- | --- |
| O=C(CCCCCCN(Cc1ccc([N+](=O)[O-])cc1)Cc1ccc([N+](=O)[O-])cc1)NO | HDAC3 | deacetylase activity | inhibitor | fluorescence | Boc-Lys(Ac)-AMC substrate | IC50 HDAC3 over IC50 HDAC1 | 0.7 |
| Fc1ccccc1NCc1cn(-c2ccccc2)nc1-c1ccc(OCc2ccccc2)cc1 | PTGS2 | enzyme activity | inhibitor | TMPD chromogenic |  | COX-1 IC50 over COX-2 IC50 | 10.1 |
| CCCCCc1ccc(S(=O)(=O)N2CC2C(=O)N(C)C)cc1 (centres unmarked) | P4HB | insulin reduction | inhibitor |  |  | IC50 PDIA1 over IC50 PDIA3 | 0.0004 to 0.0035 |
